# Measured values gathered from unrelated publications.
Structure (SMILES),test,system,conditions,measurement,value
CN[C@@H](C)C(=O)N[C@H]1CN(S(=O)(=O)c2cccc(S(=O)(=O)N3CC[C@H]4CC[C@@H](C(=O)NC(c5ccccc5)c5ccccc5)N4C(=O)[C@@H](NC(=O)[C@H](C)NC)C3)c2)CC[C@H]2CC[C@@H](C(=O)NC(c3ccccc3)c3ccccc3)N2C1=O,,"human, advanced solid tumours","intravenous, 0.6 mg weekly, CTCAE version 4.0",patients with any TRAE,0%
C[C@]1(O)C[C@@](N)(c2ccc(-c3nc4n(c3-c3ccccc3)COc3ccncc3-4)cc2)C1,,"human, advanced or metastatic solid tumours","once daily, dose escalation total",patients with grade ≥3 Anemia TEAE,11.1%
COc1ncnn2ccc(-c3cnc4nc(C)n(Cc5nnc([C@@H](C)F)o5)c4c3)c12,,human,"oral, dose not given, grade 3",patients with fatigue,0%
Cc1cn([C@H]2O[C@@H](CO[P@@](=O)(N[C@@H](C)C(=O)OC(C)C)Oc3ccccc3)[C@H](O)[C@H]2F)c(=O)[nH]c1=O,measured: Thrombocytosis,human,10 mg,patients with TEAE,17%
C=CC(=O)Nc1cc(Nc2nccc(Nc3cc(Cl)c(F)cc3C(C)(C)O)n2)c(OC)cc1N1CC[C@@H](N(C)C)C1,,human patients,"oral, 100 mg, treatment-emergent adverse events",patients with mouth ulceration,11.1%
C[C@@H]1OC(=O)NN=C1c1ccc(-c2ccc(F)cc2)c(C(F)(F)F)c1,"phase I trial, measured: alkaline phosphatase increased",human patients,"5 mg load, 0.25 mg daily, all grades",patients with TEAE,0%
Cn1nc(NS(C)(=O)=O)c2c(Cl)ccc(-n3c([C@H](Cc4cc(F)cc(F)c4)NC(=O)Cn4nc(C(F)F)c5c4C(F)(F)[C@@H]4C[C@H]54)nc4nc(OCCC(F)(F)F)ccc4c3=O)c21,measured: LDL cholesterol grade 3 increase,human,"200 mg once daily, powder in bottle",patients with laboratory abnormality,0%
CN(C)C(=O)c1cc2cnc(Nc3ccc(N4CCNCC4)cn3)nc2n1C1CCCC1,"measured: Pulmonary toxicity, AESI","human, HR+/HER2− advanced breast cancer","oral, dose not given, all grades, CTCAE v4.03",patients with adverse event,26.6%
O=C1Nc2cc3[nH]nc(-c4ccncc4)c3cc2CN1Cc1ccccc1,CTCAE v4.03,"human, relapsed or refractory advanced solid tumours","intravenous, 0.45 mg/kg, pooled schedules",patients with subretinal fluid,0%

# For quick reference, copied from above:
Structure (SMILES),test,system,conditions,measurement,value
C=CC(=O)Nc1cc(Nc2nccc(Nc3cc(Cl)c(F)cc3C(C)(C)O)n2)c(OC)cc1N1CC[C@@H](N(C)C)C1,,human patients,"oral, 100 mg, treatment-emergent adverse events",patients with mouth ulceration,11.1%
